Results pooled from the literature.
Each line is one published result; not all experiments were run side by side. ± marks the error that the study gave.
CASP7: Caspase-7 (CASP7, Homo sapiens, UniProt P55210)

SMILES	target	assay	test system	conditions	how to read	measurement	value
CC[C@H](C)[C@@H]1NC(=O)[C@H](Cc2ccccc2)NC(=O)[C@H](CCC(=O)O)NC(=O)[C@H](CCCNC(=N)N)NC(=O)CNC(=O)[C@@H](NC(=O)[C@H](CC(C)C)NC(=O)[C@H](CCCNC(=N)N)NC(=O)[C@@H](NC(=O)CNC(=O)[C@H](Cc2ccc(O)cc2)NC(=O)[C@@H]2CCCN2C(=O)[C@H](C)NC(=O)[C@H](C)NC(=O)[C@@H](N)CCCNC(=N)N)C(C)C)CSSC[C@@H]2NC(=O)[C@@H](NC(=O)[C@H](CO)NC(=O)[C@H](CO)NC(=O)[C@H](CO)NC(=O)[C@H](CC(C)C)NC(=O)CNC(=O)[C@H](C)NC(=O)[C@H](CC(C)C)NC(=O)[C@@H](NC(=O)[C@@H](N)CC(=O)O)C(C)C)CSSC[C@H](NC(=O)CNC(=O)[C@H](Cc3c[nH]c4ccccc34)NC(=O)[C@H](CCCCN)NC2=O)C(=O)N[C@@H](CO)C(=O)N[C@@H](CCCCN)C(=O)N[C@@H](CO)C(=O)N[C@@H](CCC(=O)O)C(=O)N[C@@H]([C@@H](C)CC)C(=O)N[C@@H](CO)C(=O)N[C@@H](CO)C(=O)N[C@@H](CC(C)C)C(=O)N[C@H](C(=O)O)CSSC[C@@H](C(=O)NCC(=O)NCC(=O)N[C@@H](CO)C(=O)N[C@@H](CCCNC(=N)N)C(=O)N[C@@H](Cc2c[nH]c3ccccc23)C(=O)O)NC(=O)[C@H]([C@@H](C)O)NC(=O)[C@H](Cc2ccccc2)NC(=O)[C@H]([C@@H](C)CC)NC(=O)[C@H](C(C)C)NC(=O)[C@H](C)NC(=O)[C@H](CCCNC(=N)N)NC1=O	Relaxin-3 receptor 2 (RXFP4, Homo sapiens, UniProt Q8TDU9, T121A)	–	–	T121A mutant	reference: wild type	Δemax	inactive
Clc1ccc(NN=C(c2ccccc2)c2ccccn2)nc1	Lysine-specific demethylase 4A (KDM4A, Homo sapiens, UniProt O75164)	demethylase activity, inhibitor, 1H NMR, item: H3K9me3 peptide	–	160 µM, single exponential fit	–	rate constant	0.021 min⁻¹
CCCC[C@H](NC(C)=O)C(=O)N[C@@H](CCC(=O)O)C(=O)N[C@@H](CO)C(=O)N[C@@H](CC(=O)O)C(=O)COC(=O)c1c(C)cccc1C	CASP7	enzyme activity, inhibitor	–	–	–	kinact/KI	3500 M⁻¹ s⁻¹
CCOC(=O)[C@](CC)(CCCSCCOCCOCCNC(=O)CCCCCN1C(=CC=CC=CC2=[N+](C)c3ccc4ccccc4c3C2(C)C)C(C)(C)c2c1ccc1ccccc21)NC(=O)c1ccc(C2CC2)c(Cc2ccc(F)cc2)n1.[Cl-]	Cannabinoid receptor 2 (CNR2, Homo sapiens, UniProt P34972)	radioligand binding	–	–	reference: CB1 over CB2 (human)	Ki ratio	8
N#Cc1ccc(CNC(=O)c2cc(-c3ccccc3)n(-c3ccccc3)n2)cc1	Genome polyprotein, NS2B-NS3 protease (dengue virus type 2, UniProt P29990)	reporter gene	HeLa	12.5 µM	–	inhibition	30%
O=C1c2sc(-c3ccc(N4CCC(F)C4)nc3F)nc2CCN1c1cccnc1 (centres unmarked)	Motilin receptor (MLNR, Homo sapiens, UniProt O43193)	ligand displacement, radioligand	–	1 µM	–	inhibition	-10%
CC(O)(c1cccc(F)c1)c1cn(C2OC(CO)C(O)C(O)C2O)nn1 (centres unmarked)	E3 ubiquitin-protein ligase Mdm2 (MDM2, Homo sapiens, UniProt Q00987)	thermal stability, DSF	–	30 µM	–	ΔTm	4.77 °C
N#CN1CC[C@H](C(=O)Nc2nc3c(s2)CN(C(=O)Cn2cc(CNC(=O)CCCC[C@@H]4SC[C@@H]5NC(=O)N[C@@H]54)nn2)CC3)C1	Ubiquitin carboxyl-terminal hydrolase 19 (USP19, Homo sapiens, UniProt O94966)	probe binding, affinity probe, neutravidin pull-down LC-MS/MS	HEK293T, cell lysate	5 µM, 1 h, mean of three replicates, unit not given	higher = more pulled down	iBAQ abundance	1.62e+06
CC1CCc2nc(-c3c[nH]nc3-c3ccccc3)ccc2N1 (centres unmarked)	human kinase panel	binding, KINOMEscan	–	10000 nM, %Ctrl below 1	–	number of kinases hit	0
CCCC[C@H](NC(C)=O)C(=O)N[C@@H](CCCC(=O)O)C(=O)N1CCC[C@H]1C(=O)N[C@@H](CC(=O)O)C(=O)COC(=O)c1c(C)cccc1C	CASP7	enzyme activity, inhibitor	–	–	–	kinact/KI	12300 M⁻¹ s⁻¹
C=CC(=O)N1CC2(CCN(c3nc(OC4CCN(CCCOC)CC4)nc4c(OCC(F)(F)F)c(-c5c(C)ccc6[nH]ncc56)c(C5CC5)cc34)CC2)C1	GTPase KRas, GDP-bound (KRAS, Homo sapiens, UniProt P01116)	–	–	–	–	kon	36000 ± 7800 M⁻¹ s⁻¹
C[N+](C)(C)CCOC(N)=O	Chrnd/Chrna1/Chrne (Mus musculus, UniProt P02716+P04756+P20782, G173K/S470W)	ligand binding, agonist, single-channel kinetics	–	chain K	reference: wild type over mutant	affinity ratio	1.3
O=C(O)Cc1cc2c(cc1C(=O)c1ccccc1I)OCO2	Glutamate receptor 2 (Gria2, Rattus norvegicus, UniProt P19491)	glutamate-evoked current, whole-cell patch clamp	HEK-293T	concentration not given	–	current amplitude	504 ± 32 pA
CCCCCC=CC=C1C(=O)C=CC1CC=CCCCC(=O)O (centres unmarked)	T-complex protein 1 subunit theta (CCT8, Homo sapiens, UniProt P50990)	competitive isoTOP-ABPP	Ramos soluble proteome	100 µM, 60 min, together with: iodoacetamide probe	reference: DMSO over compound-treated, higher = stronger cysteine blockade	isoTOP-ABPP competition ratio	8.6

Some of these lines once more:
SMILES	target	assay	test system	conditions	how to read	measurement	value
C=CC(=O)N1CC2(CCN(c3nc(OC4CCN(CCCOC)CC4)nc4c(OCC(F)(F)F)c(-c5c(C)ccc6[nH]ncc56)c(C5CC5)cc34)CC2)C1	GTPase KRas, GDP-bound (KRAS, Homo sapiens, UniProt P01116)	–	–	–	–	kon	36000 ± 7800 M⁻¹ s⁻¹
C[N+](C)(C)CCOC(N)=O	Chrnd/Chrna1/Chrne (Mus musculus, UniProt P02716+P04756+P20782, G173K/S470W)	ligand binding, agonist, single-channel kinetics	–	chain K	reference: wild type over mutant	affinity ratio	1.3
